# Measured values pooled from the literature.
# Numbered parts are unrelated; each lists some results of a single study.

# Sample 1 — method: universal PBM; form: double-stranded DNA, one strand shown; medium: in vitro; concentration: not given; direction: higher = stronger binding
# Target: Sal-like protein 4, full length isoform B (SALL4, Homo sapiens, UniProt Q9UJQ4-2, residues 1-616)
# Setting: 8-mer, flanks averaged, mean of replicates
Sequence,E-score
GATGAATA,0.282
CGGATGCC,-0.114
ATAACAGG,0.157
CGTTCCCC,-0.264
CGGTGGGA,-0.318

# Sample 2 — method: DNA-protein interaction ELISA; form: double-stranded DNA, one strand shown; medium: in vitro, bacterial lysate; concentration: not given; setting: whole dsDNA probe, crude lysate protein; baseline: highest signal in screen; direction: higher = stronger binding
# Target: Probable WRKY transcription factor 50, DNA-binding domain (WRKY50, Arabidopsis thaliana, UniProt Q8VWQ5, residues 99-173)
# Residues (chain): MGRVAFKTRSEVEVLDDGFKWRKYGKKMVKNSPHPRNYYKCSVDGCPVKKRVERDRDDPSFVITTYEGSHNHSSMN
Sequence,relative absorbance
AAAAAACACTGCACTATTGGGAGTTCAAAA,13.6 % of maximum
AAAAAAATTACGCGGGATCGCCAAAA,15.2 % of maximum
AAAAAAACATCCACACCCGCGGCGCGAAAA,36 % of maximum
AAAAAAGATGATTAGTAATTGCGGAAAAAA,17.1 % of maximum

# Sample 3 — method: protein-binding microarray; form: double-stranded DNA, one strand shown; medium: in vitro; concentration: 250 nM; setting: 60-bp whole probe; added: salmon DNA 0.4 mg/ml; baseline: random background probes; direction: higher = stronger binding; shared flanks, not repeated: GCCTAGCAC … GTCTTGATTCGCTTGACGCTGCTG
# Target: Interferon regulatory factor 7, full length, phosphomimetic (IRF7, Homo sapiens, UniProt Q92985, residues 1-503, S101K/S471D/S472D/S475D/S476D/S477D/S483D/S484D/S487D)
# Construct (chain): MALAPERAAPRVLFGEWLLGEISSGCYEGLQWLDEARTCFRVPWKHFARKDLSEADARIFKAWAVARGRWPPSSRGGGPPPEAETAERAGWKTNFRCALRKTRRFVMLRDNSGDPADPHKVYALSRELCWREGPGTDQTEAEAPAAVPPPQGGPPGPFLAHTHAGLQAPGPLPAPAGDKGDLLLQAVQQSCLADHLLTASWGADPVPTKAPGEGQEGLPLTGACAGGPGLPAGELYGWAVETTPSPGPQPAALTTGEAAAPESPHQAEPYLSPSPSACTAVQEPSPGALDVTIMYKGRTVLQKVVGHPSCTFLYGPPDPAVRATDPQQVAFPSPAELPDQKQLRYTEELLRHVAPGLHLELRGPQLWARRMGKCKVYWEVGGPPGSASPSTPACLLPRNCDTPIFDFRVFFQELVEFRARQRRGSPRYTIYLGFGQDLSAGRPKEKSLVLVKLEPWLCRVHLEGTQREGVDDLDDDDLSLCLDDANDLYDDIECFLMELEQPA
Sequence,log fluorescence
TTAGGTATCGGGACTGAGTTAGTGCTA,0.273 z-score
GACGATATCAGTTTCGAGATGTGCTAG,5.41 z-score
GACGATATCGGATTTCGAGACGTGCTA,0.0857 z-score
GAGGGTATCCTACTGCTGACGTGCTAG,-0.663 z-score
AAGGCTTTGCTTCCTGCAGAGTGCTAG,-0.235 z-score
GACGAACAGGGGTTTCGAGACGTGCTA,1.92 z-score
TTAGGTCTCCTTTTCCTTAAGTGCTAG,2.68 z-score

# Further values, each from its own experiment
Molecule,target,test,test system,setting,how to read,measurement,result
"PhoQ, residues 284 288 289 292 302 303 TVTVVA","PhoP, residues 12 14 15 18 19 TPWLV (Escherichia coli, UniProt P23836)","Sort-seq, refers to: YFP reporter",E. coli,"PhoQ-PhoP variant library, added: 10 µM Mg2+","baseline: high Mg2+ state, higher = stronger signaling",fold induction,9.39
